{"data": "Measurements pooled from the literature", "note": "Every numbered part comes from another study and shows a few of its results, in no order. Substitutions count along the parent as printed."}
{"data": "Set 1", "target": "tungstate, free oxyanion", "method": "microfluidic competitive inhibition", "sample": "in vitro, cell-free expressed", "tested at": "not given", "notes": "derived from inhibition constants, unchanged parent 2230 nM", "direction": "lower = stronger binding", "parent": "PafA, mature enzyme, eGFP fusion (Elizabethkingia meningoseptica, UniProt Q9KJX5); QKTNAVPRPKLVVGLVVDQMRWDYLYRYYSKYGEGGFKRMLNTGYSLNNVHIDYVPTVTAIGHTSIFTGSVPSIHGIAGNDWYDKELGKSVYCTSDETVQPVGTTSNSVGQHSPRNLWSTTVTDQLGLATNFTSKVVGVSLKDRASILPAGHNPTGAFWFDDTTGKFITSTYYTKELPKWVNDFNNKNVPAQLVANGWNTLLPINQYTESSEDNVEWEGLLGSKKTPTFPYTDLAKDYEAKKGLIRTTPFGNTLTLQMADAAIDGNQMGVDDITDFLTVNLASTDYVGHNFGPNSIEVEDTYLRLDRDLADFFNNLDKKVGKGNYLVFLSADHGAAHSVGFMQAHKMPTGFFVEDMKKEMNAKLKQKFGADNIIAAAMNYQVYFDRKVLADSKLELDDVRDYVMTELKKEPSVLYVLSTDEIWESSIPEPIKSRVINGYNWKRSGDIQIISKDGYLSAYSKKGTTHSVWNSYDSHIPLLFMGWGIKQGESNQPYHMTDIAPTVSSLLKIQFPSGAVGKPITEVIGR"}
{"Variant": "Y45G", "oxyanion analog dissociation constant [µM]": 2.44}
{"Variant": "N186V", "oxyanion analog dissociation constant [µM]": 2.28}
{"Variant": "N290V", "oxyanion analog dissociation constant [µM]": 2.92}
{"Variant": "G445V", "oxyanion analog dissociation constant [µM]": 0.339}
{"Variant": "G438V", "oxyanion analog dissociation constant [µM]": 0.868}
{"Variant": "K518G", "oxyanion analog dissociation constant [µM]": 1.92}
{"Variant": "L11G", "oxyanion analog dissociation constant [µM]": 1.54}
{"Variant": "A262V", "oxyanion analog dissociation constant [µM]": 2.18}
{"data": "Set 2", "target": "CCND3, cyclin fold, Cln2 fusion (human)", "method": "yeast growth competition, sequencing", "sample": "yeast", "notes": "weak parent motif", "baseline": "not given", "direction": "higher = stronger binding", "parent": "viral docking peptide; TSVRRALFTGGSD; partner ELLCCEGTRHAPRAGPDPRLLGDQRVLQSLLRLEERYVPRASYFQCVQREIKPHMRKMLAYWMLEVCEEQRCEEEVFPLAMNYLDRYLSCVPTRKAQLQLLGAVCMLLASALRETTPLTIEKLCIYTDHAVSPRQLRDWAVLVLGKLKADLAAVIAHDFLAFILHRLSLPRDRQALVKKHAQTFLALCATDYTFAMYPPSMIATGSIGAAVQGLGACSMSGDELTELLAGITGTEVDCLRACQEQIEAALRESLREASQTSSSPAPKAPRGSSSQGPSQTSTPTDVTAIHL"}
{"Variant": "TSVRRALFTNGSD [G10N]", "normalised enrichment score": 0.254}
{"Variant": "TSVRRMLFTGGSD [A6M]", "normalised enrichment score": -0.545}
{"Variant": "TSVRRNLFTGGSD [A6N]", "normalised enrichment score": 0.184}
{"Variant": "TSVRRALFTHGSD [G10H]", "normalised enrichment score": -0.212}
{"Variant": "TSVRRTLFTGGSD [A6T]", "normalised enrichment score": 0.0324}
{"Variant": "TSVHRALFTGGSD [R4H]", "normalised enrichment score": -0.476}
{"Variant": "TSVRRALFTGKSD [G11K]", "normalised enrichment score": 0.616}
{"Variant": "TWVRRALFTGGSD [S2W]", "normalised enrichment score": -0.255}
{"data": "Mixed results"}
{"Molecule": "TAPFYPPAYDI", "assay": "Ni-NTA bead binding, phage display NGS", "system": "peptide, phage-displayed 11-mer library", "conditions": "concentration not given, added: Ni-NTA beads", "how to read": "baseline: input library", "quantity": "enrichment fold change", "result": 1.04}
{"Molecule": "CC[C@@H](CO)NC(=O)[C@@H]1C=C2c3cccc4[nH]cc(c34)C[C@H]2N(C)C1", "tested on": "Plasmodium berghei", "assay": "inhibitor", "system": "Huh-7, liver stage", "conditions": "10 µM, 24 h", "how to read": "baseline: untreated control", "quantity": "infection rate", "result": "88.3%"}
{"Molecule": "TAPFYPPAYEI", "assay": "Ni-NTA bead binding, phage display NGS", "system": "peptide, phage-displayed 11-mer library", "conditions": "concentration not given, added: Ni-NTA beads", "how to read": "baseline: input library", "quantity": "enrichment fold change", "result": 1.71}
